Literature values as cited in several papers.
Protocols differ between the studies behind these lines.

O=C(C1CCCCC1)N1CC(=O)N2CCc3ccccc3[C@@H]2C1  AUC (human, plasma; oral, 60 mg/kg, orally dispersible tablet): 523 ng·h/mL
COc1cc(N2CCC(N3CCN(C)CC3)CC2)ccc1Nc1ncc(Cl)c(Nc2ccccc2P(C)(C)=O)n1  AUC (human; 180 mg): 20300 ng·h/mL
O=C(c1cc(Cc2n[nH]c(=O)c3ccccc23)ccc1F)N1CCN(C(=O)C2CC2)CC1  AUC (human; oral, 100 mg tablet, single dose, with: itraconazole 200 mg qd for 7 days): 40100 ng·h/mL
C#Cc1cccc(Nc2ncnc3cc(OCCOC)c(OCCOC)cc23)c1  AUC (human; intravenous, 150 mg): 41300 ng·h/mL
Nc1cc(C(F)(F)F)c(-c2nc(N3CCOCC3)nc(N3CCOCC3)n2)cn1  GI50 (SK-N-AS): 927 nM
OC(Cn1cncn1)(Cn1cncn1)c1ccc(F)cc1F  AUC (human; intravenous, 100 mg): 56800 ng·h/mL
Cn1cnc2c(F)c(Nc3ccc(Br)cc3Cl)c(C(=O)NOCCO)cc21  AUC (human; 75 mg, with: rifampicin): 2200 ng·h/mL
CCC(C)n1ncn(-c2ccc(N3CCN(c4ccc(OCC5COC(Cn6cncn6)(c6ccc(Cl)cc6Cl)O5)cc4)CC3)cc2)c1=O (centres unmarked)  AUC (human; intravenous, 100 mg): 4300 ng·h/mL
COc1ccc2[nH]c([S+]([O-])Cc3ncc(C)c(OC)c3C)nc2c1 (centres unmarked)  AUC (human post-RYGB patients; oral tablet, 20 mg once daily, day 6, 6 months after surgery): 667 ng·h/mL
C=CC(=O)Nc1cc(Nc2nccc(-c3cn(C)c4ccccc34)n2)c(OC)cc1N(C)CCN(C)C  AUC (human; 80 mg): 11.9 µM·h
COCCCC/C(=N\OCCN)c1ccc(C(F)(F)F)cc1  AUC (human; oral, 100 mg single dose): 805 ng·h/mL

Excerpt of the above:
O=C(C1CCCCC1)N1CC(=O)N2CCc3ccccc3[C@@H]2C1  AUC (human, plasma; oral, 60 mg/kg, orally dispersible tablet): 523 ng·h/mL
